Experimental data of several laboratories.
Values joined by “and” are separate records of one study, mostly repeats; a detail may differ. ± marks the error that the study gave.
IDE: Insulin-degrading enzyme (IDE, Homo sapiens, UniProt P14735)

COc1ccnc(C(=O)N[C@H]2COC(=O)[C@H](Cc3ccccc3)[C@@H](O)[C@H](C)OC2=O)c1O
DT50 (aerobic dark soil incubation; silt loam soil; 20 °C, modelling endpoint): 59.3 days

CCc1cc(C(=O)NC)c2nccc(N3CCc4c(cc(Cn5ccnc5)cc4-c4cn(C)nc4C(F)(F)F)C3=O)c2c1
serum LDL change (Sprague Dawley rats; oral, 100 mg/kg once daily, 7 days; baseline: vehicle): 9%

CC(C)c1nc(N(C)S(C)(=O)=O)nc(-c2ccc(F)cc2)c1/C=C/[C@@H](O)C[C@@H](O)CC(=O)O
subjects with adverse event (item: headache; healthy men; oral, dose not given, 8 days, treatment-emergent, crossover trial): 0%

Cc1ccc([C@@H]2O[C@H](CO)[C@@H](O)[C@H](O)[C@H]2O)cc1Cc1ccc(-c2ccc(F)cc2)s1
urinary chloride excretion change (Japanese type 2 diabetes patients; 400 mg, day 3, 24 h urine collection; baseline: baseline): -11.6 mEq

CCN1/C(=C/C(C)=O)Sc2ccc(F)cc21
PR interval change (cynomolgus monkey; oral, 30 mg/kg, 24 h post-dose; baseline: pre-dose): 99.8 ± 2.9%

Nc1ncnc2c1ncn2[C@H]1C[C@@H]2OP(=O)(O)OC[C@H]3O[C@@H](n4cnc5c(N)ncnc54)C[C@@H]3OP(=O)(O)OC[C@H]2O1
serum albumin (non-tumour-bearing mice, blood; intravenous, 1 mg/kg): 29.8 ± 4.63 g/L

CCc1nc(C(N)=O)c(Nc2ccc(N3CCC(N4CCN(C)CC4)CC3)c(OC)c2)nc1NC1CCOCC1
renal clearance (Japanese patients, plasma and urine; oral, 40 mg, cycle 1 day 28, multiple doses, median): 12.3 mL/min

CCO[C@H]1CCN(Cc2c(OC)cc(C)c3[nH]ccc23)[C@H](c2ccc(C(=O)O)cc2)C1
t½ (healthy human controls, plasma; oral, 200 mg, single dose, median): 18.7 h

CO[C@H]1C[C@@H]2CC[C@@H](C)[C@@](O)(O2)C(=O)C(=O)N2CCCC[C@H]2C(=O)O[C@H]([C@H](C)C[C@@H]2CC[C@@H](O)[C@H](OC)C2)CC(=O)[C@H](C)/C=C(\C)[C@@H](O)[C@@H](OC)C(=O)[C@H](C)C[C@H](C)/C=C/C=C/C=C/1C
heart rate (healthy adult horses; oral, 0.06 mg/kg, 72 h): 33.5 ± 1.9 beats/min

CC(=O)N[C@@H](CS)C(=O)O
fraction unbound (rat, plasma): 2.4%

CO[C@H]1CC[C@H](N2C(=O)CNc3ncc(-c4ccc(C(C)(C)O)nc4)nc32)CC1
renal clearance (patients, urine; oral, 60 mg, day -1, geometric mean): 0.657 mL/min

CCN1CCN(C(=O)c2ccc(-n3nc(-c4cccnc4)c4c3-c3sc(NC(C)=O)nc3CC4)cc2)CC1
body weight (NSG mice; dose not given, day 5): 16 g and 20 g and 19.7 g

C[C@@H]1COCCN1c1cc(C2([S@](C)(=N)=O)CC2)nc(-c2cc[nH]c3nccc2-3)n1
Nausea incidence (Japanese advanced solid tumour patients; oral, 240 mg twice daily, any grade): 50%

Cn1cc(Nc2nccc(-c3ccc4c(c3)CN(C3COC3)CC[C@H]4NC(=O)c3cn(C(C)(C)C)nn3)n2)cn1
plasmablast count change (human, whole blood; 150 mg twice daily, day 7; baseline: pre-dose baseline): 4.61%

Cc1nc2ccc(OCc3ccc(C(F)(F)F)cc3)cc2[nH]1
brain homogenate binding (rapid equilibrium dialysis; mouse brain homogenate; 2 µM, 4 h, 37 °C): 96.2%

NC1(C(=O)N[C@@H](CCO)c2ccc(Cl)cc2)CCN(c2nc[nH]c3nccc2-3)CC1
incidence of Stomatitis (metastatic CRPC patients; 400 mg b.i.d., any grade, treatment-related, with: enzalutamide 160 mg daily): 0%

CC(C)n1c(Nc2cccnc2)nc2cnc(Nc3ccc(N4CCN(C)CC4)cc3)nc21
subjects with adverse event (item: nausea; healthy male subjects; oral, 150 mg, study, with: rifampin): 0%

N#Cc1ccc2c(c1)[C@H]1CCCN(C(=O)c3ccc4[nH]cnc4c3)[C@H]1C2
DHEA-S level (human males; 20 mg, end of trial): 6.4 µmol/L

O=C(CCCCCCC(=O)Nc1ccc(CC[18F])cc1)NO
tissue uptake (athymic nu/nu male mice, LNCaP xenograft, spleen; intravenous, 0.5 h): 4.4 ± 1.1 %ID/g

CC(C)C(=O)O[C@H]1[C@H](C)OC(=O)[C@@H]1Cc1ccccc1
DT50 water (Staffordshire loam sediment, aerobic dark; 20 °C): 0.72 days

CCN1CCN(Cc2ccc(NC(=O)c3ccc(C)c(NC(=O)c4cncc(-c5cccs5)c4)c3)cc2C(F)(F)F)CC1
Tmax (C57BL/6 mice, epithelial lining fluid; intraperitoneal, 30 mg/kg): 1 h

Cc1cc(NC2CCN(C(=O)OC3CCN(C(=O)/C=C/CN(C)C)C3)CC2)n2ncc(C(C)C)c2n1 (stereo not shown)
patients with adverse event (Phase I dose escalation CTCAE v4.0, item: blood creatinine increased; patients with advanced solid tumours; dose not given, QD dosing grade 3 or higher): 0%

C[Si](C)(C)O[Si](C)(C)O[Si](C)(C)C
log KAW (1.9 to 6.0 µg/L, 35.0 °C): 3.24

COc1ccc(C[C@@H](C)[C@@H](C)Cc2ccc(OC)c(OC)c2)cc1OC
AUC(0-t) (beagle dog, male, plasma; oral, 100 mg/kg/day, day 1): 14000 ± 5520 ng·h/mL

OC[C@H]1O[C@@H](c2ccc(Cl)c(Cc3ccc(O[C@H]4CCOC4)cc3)c2)[C@H](O)[C@@H](O)[C@@H]1O
change in LDL/HDL ratio (Japanese type 1 diabetes patients, blood; 2.5 mg, day 28; baseline: baseline): -0.05

O=C1CC[C@H](N2Cc3cc(N4CCN(CC5CCN(c6ccc([C@@H]7c8ccc(O)cc8CC[C@@H]7c7ccccc7)cc6)CC5)CC4)ccc3C2=O)C(=O)N1
participants with TRAE nausea (human; oral, 200 mg, with: dabigatran etexilate 75 mg): 0%

Cc1[nH]c(C)c(-c2ccc(OCc3ccc(OC(F)(F)F)cc3)nc2)c(=O)c1Br
IC50 (Plasmodium yoelii; 17XL; 384-well): 174 ± 43 nM

C=CC(=O)Nc1cc(Nc2nccc(-c3cn(C)c4ccccc34)n2)c(OC)cc1N(C)CCN(C)C
percentage recovery (storage stability; human dried blood spot samples; 30 d, -80 °C, LLOQ level; baseline: nominal concentration): 40%

N[C@@H](Cc1ccc(O)c(O)c1)C(=O)O
peak dyskinesia disability score (MPTP-lesioned marmoset, dyskinetic; 20 mg/kg, scale 0-3; direction not given): 3

O=C(COc1ccc(Cl)cc1)NC12CC(c3nnc([C@H]4C[C@@H](OC(F)(F)F)C4)o3)(C1)C2
adverse event incidence (item: postural dizziness; human; oral, 200 mg once daily, 14 days): 14.3%

CS(=O)(=O)c1ccc(-c2nc3ccccc3n2CC(=O)N/N=C/c2ccc(Cl)cc2)cc1
ulcer index (rat, stomach; concentration not given, 4 h; baseline: indomethacin): 6.3%

CCOc1c([C@H](C)n2nc(C)c3c(N)ncnc32)cc(Cl)c(F)c1[C@@H]1CNC(=O)C1
share of patients (item: QTcF ≤ 450 ms; previously treated B-cell malignancy; oral, dose not given, all doses, overall population): 100%

O=C(N[C@H](Cc1c[nH]c2ccccc12)C(=O)Nc1ccncc1)c1ccc(N2CCN(c3ccc(F)cc3F)CC2)cc1F
concentration (Swiss Webster mouse, female, liver; oral, 50 mg/kg, 2 h, 20% Kolliphor vehicle): 98 µM

O=C(Nc1nc2cccc(-c3ccc(CN4CCS(=O)(=O)CC4)cc3)n2n1)C1CC1
treatment-emergent adverse events (item: thrombocytopenia; rheumatoid arthritis patients; oral, 300 mg once daily, 4 weeks, any relatedness): 0%

Cc1cccc(CNC(=O)c2cn(CCNC(=O)c3ccccc3S)c3cc4c(cc3c2=O)OC(F)(F)O4)n1
AUC(0-t) (Sprague-Dawley rat, male, plasma; intramuscular, 3 mg/kg of parent compound): 155 ± 44.2 ng·h/mL

Cc1cccc(-c2ccc([C@H]3[C@@H](CO)N4CCCCN(C(=O)c5cccnc5)C[C@H]34)cc2)c1
EC50 (IDE; enzyme activity, inhibitor, fluorogenic kinetic; with: Mca-RPPGFSAFK(Dnp)-OH substrate): 3400 nM

O=C(O)CCC(=O)O.[2H]C([2H])([2H])Oc1cc(C)c2[nH]ccc2c1CN1CC[C@@H](C2CC2)C[C@H]1c1ccc(C(=O)O)cc1
TEAE sinus bradycardia (healthy Chinese subjects; 50 mg, single ascending dose): 16.7%

FC(F)(F)c1ccc(CNc2ccc(Cc3c[nH]c4ncc(Cl)cc34)cn2)cn1
treatment-related adverse events (item: Hypophosphatemia; patients with advanced solid tumours, all cohorts; oral, 1000 mg/day, any grade): 13%

CCn1c(=O)c(-c2cc(NC(=O)Nc3ccccc3)c(F)cc2Br)cc2cnc(NC)cc21
participants with drug-related TEAE (item: lipase increased; healthy human, matched to severe hepatic impairment; oral, 50 mg single dose): 50%

CC(C)(C)OCC(=O)Nc1nnc(S(N)(=O)=O)s1
Ki (Enterococcus faecium γ-carbonic anhydrase; CO2 hydration, inhibitor, stopped-flow kinetics): 223 nM

COc1ccc2c(c1)CN(C(=O)CCN1CCC(Cc3ccccc3)CC1)CC[S@@+]2[O-]
fu (rat plasma; 10000 ng/mL): 0.575

CC(=O)N(C)[C@H]1CCN(C(=O)c2cnc3c(c2)C[C@](C)(c2ccc(F)cc2)N3)C1
adverse event duration (item: abdominal pain; human; oral, 15 mg once daily): 1 days

OCc1cc(C(O)CNCCCCCCOCCCCc2ccccc2)ccc1O (stereo not shown)
fraction unbound (equilibrium dialysis; rat, lung homogenate): 0.0029

CN1CCC[C@H](CN2c3ccccc3Sc3ccccc32)C1.Cl
Cmax (fasted female ICR mouse, lymph node; oral, 16 mg/kg): 1370 ng/g

Cc1cc(-c2nccc3c2ccn3CC(=O)Nc2ccc(-c3cnccn3)cn2)ccn1
subjects with procedural pain (human; 5 mg once daily, multiple ascending dose): 12.5%

CC(C)(C(=O)N1CCOc2c(C#N)cncc2C1)C(F)F
subjects with TEAE (item: skin irritation; healthy humans, both sexes; oral, 30 mg single dose): 0%

O=C(O)c1cccc(C(=O)O)c1
apparent dissolution enthalpy (betaine/propylene glycol DES-water; DES mass fraction 0.10): 6.17 kcal/mol

COc1ccnc(C(=O)NC(CO)C(=O)O)c1O (racemic)
DT50 (aerobic dark soil incubation; sandy loam soil; 20 °C, persistence endpoint): 0.64 days

Cc1ccc(Sc2ccccc2N2CCNCC2)c(C)c1
any adverse event (elderly women; oral, 10 mg single): 25%

COc1ccccc1-c1ccc([C@@H]2[C@@H](C#N)N(C(=O)c3cccnc3)[C@@H]2CO)cc1
EC50 (IDE; enzyme activity, inhibitor, fluorogenic kinetic; with: Mca-RPPGFSAFK(Dnp)-OH substrate): 1200 nM

CCCCCCCOc1ccc(CCC(N)(CO)CO)cc1C(F)(F)F.Cl
renal clearance (healthy men; oral, 0.125 mg, day 21): 0.0727 mL/min

CCOc1c([C@H](C)n2nc(C)c3c(N)ncnc32)cc(Cl)c(F)c1[C@@H]1CNC(=O)C1
stability relative error (rat plasma; 800 ng/mL, three freeze-thaw cycles; baseline: nominal concentration): -6.7%

C1=C/COCc2cc(ccc2OCCN2CCCC2)Nc2nccc(n2)-c2cccc(c2)COC/1
body weight (BALB/c mice, rhEPO-induced polycythemia; 120 mg/kg, day 0): 17.6 g and 20.1 g and 18.3 g and 19 g and 18.9 g and 18.1 g

C=CCN1CC(=O)N2[C@@H](Cc3ccc(O)cc3F)C(=O)N(Cc3cccc(N4CC(N5CCN(CC)CC5)C4)n3)C[C@@H]2N1C(=O)NCc1ccccc1
patients with ALT increased (advanced solid tumour patients; 20 mg twice daily, treatment-related, any grade): 0%

NS(=O)(=O)c1cnc(NC(=O)CC2CCCCC2)s1
Ki (Enterococcus faecium γ-carbonic anhydrase; CO2 hydration, inhibitor, stopped-flow kinetics): 717 nM

NCCONC(=O)[C@@H]1CC[C@@H]2CN1C(=O)N2OS(=O)(=O)O
number of Moderate TRAE events (healthy Chinese male subjects; intravenous, 1 g): 0

CNCc1ccc(-c2[nH]c3cc(F)cc4c3c2CCNC4=O)cc1
headache incidence (human patients; oral, 480 mg twice daily, all grades): 11.1%

Cc1[nH]c(C)c(-c2ccc(-c3ccc(OC(F)(F)F)cc3)nc2)c(=O)c1Cl
IC50 (Plasmodium yoelii; 17XL; 384-well): 224 ± 25 nM

N#Cc1ccc2c(c1)[C@H]1CCCN(C(=O)c3ccc4[nH]cnc4c3)[C@H]1C2
CL/F at steady state (human, plasma; oral, 240 mg once daily, day 28): 75.3 mL/min

COc1cc2nccc(Oc3ccc(NC(=O)c4cc5c(n(-c6ccccc6)c4=O)CCCC5=O)nc3)c2cc1OC
patients with sinus tachycardia (human, relapsed/refractory AML; oral, dose not given, grade ≥3, any causality, all doses): 10%

C=CC(=O)Nc1cc(Nc2nccc(-c3cn(C4CC4)c4ccccc34)n2)c(OC)cc1N(C)CCN(C)C
albumin (BALB/c nude mice, LU0387 xenograft, serum; oral, 40 mg/kg): 26.9 ± 0.52 g/L
